Published values pooled from the literature.
Protocols differ between the studies behind these lines. ± gives the spread as reported.
B1: SULT2A1 (Homo sapiens, UniProt Q06520); chain MSDDFLWFEGIAFPTMGFRSETLRKVRDEFVIRDEDVIILTYPKSGTNWLAEILCLMHSKGDAKWIQSVPIWERSPWVESEIGYTALSETESPRLFSSHLPIQLFPKSFFSSKAKVIYLMRNPRDVLVSGYFFWKNMKFIKKPKSWEEYFEWFCQGTVLYGSWFDHIHGWMPMREEKNFLLLSYEELKQDTGRTIEKICQFLGKTLEPEELNLILKNSSFQSMKENKMSNYSLLSVDYVVDKAQLLRKGVSGDWKNHFTVAQAEDFDKLFQEKMADLPRELFPWE
B2: PTPN2 (Homo sapiens, UniProt P17706); chain MPTTIEREFEELDTQRRWQPLYLEIRNESHDYPHRVAKFPENRNRNRYRDVSPYDHSRVKLQNAENDYINASLVDIEEAQRSYILTQGPLPNTCCHFWLMVWQQKTKAVVMLNRIVEKESVKCAQYWPTDDQEMLFKETGFSVKLLSEDVKSYYTVHLLQLENINSGETRTISHFHYTTWPDFGVPESPASFLNFLFKVRESGSLNPDHGPAVIHCSAGIGRSGTFSLVDTCLVLMEKGDDINIKQVLLNMRKYRMGLIQTPDQLRFSYMAIIEGAKCIKGDSSIQKRWKELSKEDLSPAFDHSPNKIMTEKYNGNRIGLEEEKLTGDRCTGLSSKMQDTM
B3: enzyme E416A (Streptomyces platensis, UniProt A0A0A0V031); chain MQHTTIGDVLREHRRSHPGRTALVDGPVRLTWPELDDRVNRLAGSLAASGIGRGDRIMWLGQNSFRVYELIAAAGKLGAMVCVGYWRWAPPEMEFALRDFDPHLVVWQHQEIHETVARTREALGSDDTARWLRHDSAPQDPDGYEAFLAAGGLADPDLDIDPDSPVLVLYTAAMSGRQCGSLLSHTNLIAMATAAAWLGDIDHTTAFLNSGPMFHIGNHQFWGMPTLLMAGKNVIVRRVVAEEVRDLLVAEECTHAFLMPPTVAEIVRLNRDTGHDLSRLRATVAPHLWEGMATTDTSRFTRSGAAAGRGYGQTELSGFAVTAAYGGPAAGNAGRPGPGLTVRVLDTAGRECAVGEAGEICARGTVVHRGYWNRDEVNAHRFRSGWWHTTDLGRREPDGSLTFLGTTTRMLKSAAANIFPAEVENCIEQHPAVREAAVIGVPNTRWAQDVKAVVVLEPDAGVSEQEIIDHCRPRIASYKKPKSVAFAAALPRTVSGARDYDALDKEYGGGGYPGAATLGPGR
B4: enzyme A172S/A173G/A497K/C179K/M174T/Q178P (Streptomyces platensis, UniProt A0A0A0V031); chain MQHTTIGDVLREHRRSHPGRTALVDGPVRLTWPELDDRVNRLAGSLAASGIGRGDRIMWLGQNSFRVYELIAAAGKLGAMVCVGYWRWAPPEMEFALRDFDPHLVVWQHQEIHETVARTREALGSDDTARWLRHDSAPQDPDGYEAFLAAGGLADPDLDIDPDSPVLVLYTSGTSGRPKGSLLSHTNLIAMATAAAWLGDIDHTTAFLNSGPMFHIGNHQFWGMPTLLMAGKNVIVRRVVAEEVRDLLVAEECTHAFLMPPTVAEIVRLNRDTGHDLSRLRATVAPHLWEGMATTDTSRFTRSGAAAGRGYGQTELSGFAVTAAYGGPAAGNAGRPGPGLTVRVLDTAGRECAVGEAGEICARGTVVHRGYWNRDEVNAHRFRSGWWHTTDLGRREPDGSLTFLGTTTRMLKSAAENIFPAEVENCIEQHPAVREAAVIGVPNTRWAQDVKAVVVLEPDAGVSEQEIIDHCRPRIASYKKPKSVAFAAALPRTVSGKRDYDALDKEYGGGGYPGAATLGPGR
Chain of UniProt Q8VYV7 (whole entry, looked up): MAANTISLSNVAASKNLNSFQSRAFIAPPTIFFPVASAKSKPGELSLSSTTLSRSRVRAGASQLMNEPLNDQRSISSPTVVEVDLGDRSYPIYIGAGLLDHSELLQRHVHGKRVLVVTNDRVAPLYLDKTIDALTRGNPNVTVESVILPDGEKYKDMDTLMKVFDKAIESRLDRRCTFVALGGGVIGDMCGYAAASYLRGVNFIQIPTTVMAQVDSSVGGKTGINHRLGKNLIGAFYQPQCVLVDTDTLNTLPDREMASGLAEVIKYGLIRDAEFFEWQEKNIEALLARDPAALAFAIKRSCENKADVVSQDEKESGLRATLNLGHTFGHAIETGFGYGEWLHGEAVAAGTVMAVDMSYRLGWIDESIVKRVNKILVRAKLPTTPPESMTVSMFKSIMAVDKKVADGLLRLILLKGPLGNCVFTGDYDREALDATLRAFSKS
Chain of UniProt P09470 (whole entry, looked up): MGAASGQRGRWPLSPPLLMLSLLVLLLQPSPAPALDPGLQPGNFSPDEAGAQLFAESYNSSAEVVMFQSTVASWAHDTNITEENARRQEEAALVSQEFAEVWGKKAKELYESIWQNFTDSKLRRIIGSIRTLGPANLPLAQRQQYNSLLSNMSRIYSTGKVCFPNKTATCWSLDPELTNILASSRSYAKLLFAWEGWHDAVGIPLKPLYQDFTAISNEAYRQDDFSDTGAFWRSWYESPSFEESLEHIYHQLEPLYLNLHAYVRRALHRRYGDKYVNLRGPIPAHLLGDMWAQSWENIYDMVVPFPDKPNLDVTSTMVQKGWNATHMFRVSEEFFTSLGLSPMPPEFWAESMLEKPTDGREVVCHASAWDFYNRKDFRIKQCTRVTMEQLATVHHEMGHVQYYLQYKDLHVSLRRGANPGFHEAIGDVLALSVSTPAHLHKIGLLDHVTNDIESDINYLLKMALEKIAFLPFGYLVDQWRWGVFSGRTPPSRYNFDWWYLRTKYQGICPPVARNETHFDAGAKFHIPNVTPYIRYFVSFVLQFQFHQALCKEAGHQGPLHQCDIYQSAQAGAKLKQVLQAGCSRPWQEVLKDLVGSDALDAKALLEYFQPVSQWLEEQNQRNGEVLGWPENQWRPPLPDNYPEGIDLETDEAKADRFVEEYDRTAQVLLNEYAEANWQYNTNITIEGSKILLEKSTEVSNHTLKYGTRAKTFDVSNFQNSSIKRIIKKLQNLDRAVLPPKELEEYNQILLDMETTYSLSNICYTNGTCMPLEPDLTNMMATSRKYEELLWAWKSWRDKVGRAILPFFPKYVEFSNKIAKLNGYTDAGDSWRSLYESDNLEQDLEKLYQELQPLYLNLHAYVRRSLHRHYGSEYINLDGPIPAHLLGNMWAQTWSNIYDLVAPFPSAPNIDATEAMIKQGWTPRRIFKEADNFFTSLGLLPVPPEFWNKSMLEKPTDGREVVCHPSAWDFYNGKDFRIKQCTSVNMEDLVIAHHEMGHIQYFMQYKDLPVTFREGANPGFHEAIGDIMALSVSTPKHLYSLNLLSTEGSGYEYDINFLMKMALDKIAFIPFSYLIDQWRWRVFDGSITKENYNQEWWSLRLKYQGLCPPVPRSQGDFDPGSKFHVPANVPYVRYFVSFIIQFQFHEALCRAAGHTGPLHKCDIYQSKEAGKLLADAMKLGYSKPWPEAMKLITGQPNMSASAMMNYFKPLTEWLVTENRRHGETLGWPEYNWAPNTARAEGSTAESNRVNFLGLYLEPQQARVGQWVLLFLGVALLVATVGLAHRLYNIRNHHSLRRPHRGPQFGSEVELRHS
Chain of UniProt Q01827 (whole entry, looked up): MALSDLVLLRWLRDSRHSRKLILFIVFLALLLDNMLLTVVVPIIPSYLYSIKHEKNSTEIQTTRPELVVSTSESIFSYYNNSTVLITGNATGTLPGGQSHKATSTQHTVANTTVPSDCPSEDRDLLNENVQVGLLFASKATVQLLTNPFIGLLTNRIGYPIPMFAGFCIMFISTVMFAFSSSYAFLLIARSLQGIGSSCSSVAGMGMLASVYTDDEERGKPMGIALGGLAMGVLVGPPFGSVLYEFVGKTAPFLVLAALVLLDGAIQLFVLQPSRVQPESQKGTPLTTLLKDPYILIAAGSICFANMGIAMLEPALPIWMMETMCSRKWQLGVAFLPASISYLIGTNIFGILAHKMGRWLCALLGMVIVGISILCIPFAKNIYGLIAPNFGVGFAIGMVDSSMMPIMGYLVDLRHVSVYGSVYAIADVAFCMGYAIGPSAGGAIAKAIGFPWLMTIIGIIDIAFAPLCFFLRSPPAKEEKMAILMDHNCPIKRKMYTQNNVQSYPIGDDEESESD

Substance | target or system | test | system | setting | quantity | result
DHQS (Arabidopsis thaliana, UniProt Q8VYV7) | O=C(O)C(=O)C[C@@H](O)[C@H](O)[C@H](O)COP(=O)(O)O | steady-state kinetics | – | apparent | Km | 2.4 µM
B1 (SULT2A1) | C[C@]12CC[C@H](O)CC1CCC1C2[C@H](O)C(=O)[C@]2(C)[C@@H](c3ccc(=O)oc3)CC[C@]12O | steady-state kinetics | – | pH 7.4, 37 °C, sulfation by SULT2A1, not purified | Km | 39.6 µM
Slc18a2 (Rattus norvegicus, UniProt Q01827) | NCCc1cc(=O)oc2cc(N)ccc12 | steady-state kinetics | – | not purified | Km | 13.7 µM
B2 (PTPN2) | CCCC[C@H](NC(=O)[C@H](CC(=O)O)NC(=O)[C@H](CC(=O)O)NC(=O)[C@H](CCC(=O)O)NC(=O)[C@H](Cc1ccc(OP(=O)(O)O)cc1)NC(=O)[C@H](CC(=O)O)NC(=O)[C@H](CC(=O)O)NC(=O)[C@H](CCC(=O)O)NC(=O)[C@H](CC(C)C)NC(=O)[C@H](CCC(=O)O)NC(=O)[C@H](CCC(=O)O)NC(=O)c1ccc2c(c1)C1(OC2=O)c2ccc(O)cc2Oc2cc(O)ccc21)C(=O)N[C@@H](CCC(=O)O)C(=O)N[C@@H](CCC(=O)O)C(N)=O | steady-state kinetics | – | 21 °C | Km | 0.29 µM
TATTTAGTTAGATATCTAACTAAATA (dsDNA (Staphylococcus aureus); blunt, self-complementary) | MarR family regulatory protein full length assumed F27L (Staphylococcus aureus, UniProt Q5Y812) | ITC | double-stranded DNA, one strand shown | – | Kd | 1.25 µM
AGAAATCGTTCTTAAGTCCTATGACA (dsDNA) | LiaR DNA-binding domain D191N (Enterococcus faecalis, UniProt R3G073) | MST | double-stranded DNA, one strand shown | – | Kd | 4.06 ± 0.76 µM
B3 (enzyme E416A) | C[C@@]12CCC[C@@](C)(C(=O)OP(=O)(O)OC[C@H]3O[C@@H](n4cnc5c(N)ncnc54)[C@H](O)[C@@H]3O)[C@H]1C[C@@H](O)[C@]13C[C@H]4C[C@H](O[C@@]4(C)C1)[C@@H]23 | steady-state kinetics | – | pH 7.8, 25 °C | Km | 0.42 µM
ACE (Mus musculus, UniProt P09470) | COc1ccc2c(CC(=O)N[C@@H](CCCNC(=N)N)C(=O)N3CCC[C@H]3C(=O)N3CCC[C@H]3C(=O)NCC(=O)N[C@@H](Cc3ccccc3)C(=O)N[C@@H](CO)C(=O)N[C@@H](C)C(=O)N[C@@H](Cc3ccccc3)C(=O)N[C@@H](CCCCNc3ccc([N+](=O)[O-])cc3[N+](=O)[O-])C(=O)O)cc(=O)oc2c1 | steady-state kinetics | – | pH 6.5 | Km | 14 µM
B4 | C[C@@]12CCC[C@@](C)(C(=O)OP(=O)(O)OC[C@H]3O[C@@H](n4cnc5c(N)ncnc54)[C@H](O)[C@@H]3O)[C@H]1C[C@@H](O)[C@]13C[C@H]4C[C@H](O[C@@]4(C)C1)[C@@H]23 | steady-state kinetics | – | pH 7.8, 25 °C | Km | 0.71 µM
ACTAGTCCTTACTAATGAGAAGAAAT (dsDNA) | LiaR D50E/D191N (Enterococcus faecalis, UniProt R3G073) | MST | double-stranded DNA, one strand shown | – | Kd | 16.1 ± 2.1 µM
enzyme (Flavobacterium johnsoniae, UniProt A5FLV3) | CC(C)=CCC[C@](C)(O[C@@H]1O[C@H](CO[C@@H]2O[C@H](CO)[C@@H](O)[C@H](O)[C@H]2O)[C@@H](O)[C@H](O)[C@H]1O)[C@H]1CC[C@]2(C)[C@@H]1[C@H](O)C[C@@H]1[C@@]3(C)CC[C@H](O[C@@H]4O[C@H](CO)[C@@H](O)[C@H](O)[C@H]4O[C@@H]4O[C@H](CO)[C@@H](O)[C@H](O)[C@H]4O)C(C)(C)[C@@H]3CC[C@]12C | steady-state kinetics | – | pH 6, 37 °C, apparent | Km | 2840 µM

Some of these lines once more:
Substance | target or system | test | system | setting | quantity | result
DHQS (Arabidopsis thaliana, UniProt Q8VYV7) | O=C(O)C(=O)C[C@@H](O)[C@H](O)[C@H](O)COP(=O)(O)O | steady-state kinetics | – | apparent | Km | 2.4 µM
